# Measured values gathered from unrelated publications.
# A part holds a random share of what one study measured. Changes are numbered by the printed parent chain.

# Series 1
# Target: RING finger protein unkempt homolog, zinc fingers 1-6, SBP tag (UNK, Homo sapiens, UniProt Q9C0B0, residues 30-357)
# Sequence of UniProt Q9C0B0 (30-357, looked up): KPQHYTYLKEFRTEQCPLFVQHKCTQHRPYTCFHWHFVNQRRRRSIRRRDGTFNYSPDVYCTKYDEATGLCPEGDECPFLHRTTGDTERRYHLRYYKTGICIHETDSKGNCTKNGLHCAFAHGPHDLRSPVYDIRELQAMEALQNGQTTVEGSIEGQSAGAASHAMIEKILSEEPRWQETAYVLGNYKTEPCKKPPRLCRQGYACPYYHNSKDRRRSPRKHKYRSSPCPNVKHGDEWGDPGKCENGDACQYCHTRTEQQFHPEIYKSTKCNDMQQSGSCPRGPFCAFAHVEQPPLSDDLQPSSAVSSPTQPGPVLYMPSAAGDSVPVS
# Method: RNA Bind-n-Seq
# Form: RNA
# Matrix: in vitro
# Tested at: 100 nM
# Notes: RNA with constant flanks, vertebrate orthologous sites, ends assumed
# Relative to: input RNA pool
# Direction: higher = stronger binding
Oligonucleotide,bound/input enrichment [ratio]
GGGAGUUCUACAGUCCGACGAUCUUGUUGUGUACAGGGCAUUCUCUGUACUAGUUUGUUGUGGUUAUAAAACAUUUAGCAAAACAGCUUACAUUUGUAUUUAUUUUCUAUUCCAUACUUCUGUGCCCCAUGUGUUUCUCUUAACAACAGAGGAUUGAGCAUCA,0.656
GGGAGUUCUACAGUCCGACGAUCCCCUCUGAACCCCAUAUCUUCUGUUUCAUAGUGCAGAAGUAUUCUUUUCAAUUGUAUUAUUAGUGGACUUCUUUAAUUUUAGAGAAACGUUCAGUACAGAUACUGUGACCUUACAUGGAACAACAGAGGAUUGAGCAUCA,0.869
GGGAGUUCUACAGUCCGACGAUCGUUUAGAUAAUUCUUUUUAUUUUUUUUCCUUUUCCCUUAAUCCUUUUUUAUUUUUAAAAAUAGUUCUUUUGUAAUGUGGUGUUCAAAAUGAAAAUUGAAUACUGGCUCUCCAUCUCUUUACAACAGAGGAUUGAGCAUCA,7
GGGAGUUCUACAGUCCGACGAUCUUCCAACUCAGGGCUUAUUUAUUUUAAGAUUAUCAACUAUAAAUCUAAUUUAUUACCAAAUCUUGGUCUUUAAAAAUAUAUAUUGUUGGAACCUUGACAGAUACUUCUAUAUUGUCAGCUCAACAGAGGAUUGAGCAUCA,0.528
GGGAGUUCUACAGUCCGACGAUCCAUUGUACCCUGCUGUAUAAUAAACAGUCUUAGACAUUUAUCAACUGUUGAUACACAUGUUAGUCCCUAACCACUUUUUAUAUGUUUUAAAUUUUUGAAAUUCAAGUGUACCUGCCAUAACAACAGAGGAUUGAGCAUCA,1.97
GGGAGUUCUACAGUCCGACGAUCAGUCGAUGCAAUUACAUAAUACUGAGCUUACAGUUGAAAGGAUAUCCCAGUAUGUGUUGGUAGUUACUGAAGGAAUUAGAACUGGUGUUGCCUUGUAUUUUAGCCCUUGUUUCAGGUUUUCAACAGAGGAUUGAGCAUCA,0.368
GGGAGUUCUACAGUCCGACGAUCACAUGCGUGAGCUUCUCUGCAGUUUAAGACGCUUCCUUUGGUUCCUCACAUAUCUCAUCCUAUUGACUUACCUAUUUUUUAAAAAUAGCAGUAUAAACUCAAAGUGGACUUAACACAGUGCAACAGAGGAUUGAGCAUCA,0.676

# Series 2
# Target: ABI1, truncated, D143A, DHFR fusion (Arabidopsis thaliana)
# Method: DHFR PCA, deep sequencing
# Matrix: yeast
# Notes: methotrexate growth selection, single substitutions
# Together with: (+)-ABA 17 µM
# Relative to: wild-type fitted maximum
# Direction: higher = stronger binding
# Starting sequence: PYL1, truncated, DHFR fusion (Arabidopsis thaliana); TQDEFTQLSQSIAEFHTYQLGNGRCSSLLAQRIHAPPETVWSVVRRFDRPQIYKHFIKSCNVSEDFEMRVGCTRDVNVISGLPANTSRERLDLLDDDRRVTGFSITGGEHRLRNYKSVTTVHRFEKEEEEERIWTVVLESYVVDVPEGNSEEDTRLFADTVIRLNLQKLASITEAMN
Substitution,relative binding score
I79M,70.8%
E14C,50.9%
N22G,81.2%
V143K,-5.67%
N165D,5.94%
S171F,77.9%
L93S,48.6%
F15C,35.7%
N22Q,87.4%
R24E,79.2%
G108L,0.41%
E67A,80.1%
S59M,46.2%

# Series 3
# Target: Sal-like protein 4, full length isoform A (SALL4, Homo sapiens, UniProt Q9UJQ4, residues 1-1053)
# Sequence of UniProt Q9UJQ4 (whole entry, looked up): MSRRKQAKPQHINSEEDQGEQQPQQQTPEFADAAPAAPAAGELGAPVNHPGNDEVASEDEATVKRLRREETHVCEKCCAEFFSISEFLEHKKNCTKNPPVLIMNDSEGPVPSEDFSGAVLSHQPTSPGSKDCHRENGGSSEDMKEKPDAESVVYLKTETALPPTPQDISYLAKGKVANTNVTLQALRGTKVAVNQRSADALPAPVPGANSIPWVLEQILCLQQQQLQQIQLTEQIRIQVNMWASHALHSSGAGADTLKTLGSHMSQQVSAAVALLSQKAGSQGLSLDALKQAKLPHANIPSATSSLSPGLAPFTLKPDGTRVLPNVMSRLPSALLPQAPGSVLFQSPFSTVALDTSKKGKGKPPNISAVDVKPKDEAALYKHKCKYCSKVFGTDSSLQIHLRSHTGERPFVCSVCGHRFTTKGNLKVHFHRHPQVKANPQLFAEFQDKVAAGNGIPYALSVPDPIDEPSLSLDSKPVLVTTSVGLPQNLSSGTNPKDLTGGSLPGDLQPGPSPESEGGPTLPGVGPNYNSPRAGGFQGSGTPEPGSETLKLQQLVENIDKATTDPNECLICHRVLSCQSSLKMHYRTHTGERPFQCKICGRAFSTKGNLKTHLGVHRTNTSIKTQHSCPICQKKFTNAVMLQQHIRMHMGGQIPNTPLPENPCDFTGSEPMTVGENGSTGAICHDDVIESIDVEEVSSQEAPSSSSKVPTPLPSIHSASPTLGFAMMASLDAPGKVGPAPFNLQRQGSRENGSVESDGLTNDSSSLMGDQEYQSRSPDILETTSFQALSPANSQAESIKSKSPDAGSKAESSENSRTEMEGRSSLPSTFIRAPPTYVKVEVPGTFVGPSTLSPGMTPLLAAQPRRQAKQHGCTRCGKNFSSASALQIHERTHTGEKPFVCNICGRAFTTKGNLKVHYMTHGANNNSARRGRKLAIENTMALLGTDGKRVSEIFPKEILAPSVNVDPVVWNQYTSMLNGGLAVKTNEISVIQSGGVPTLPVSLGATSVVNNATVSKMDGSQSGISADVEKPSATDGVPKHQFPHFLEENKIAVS
# Method: universal PBM
# Form: double-stranded DNA, one strand shown
# Matrix: in vitro
# Tested at: 600 nM
# Notes: 8-mer, flanks averaged, mean of replicates
# Direction: higher = stronger binding
Oligonucleotide,E-score
CGGCCCCG,-0.419
AATGTGAT,0.225
CCTCAGAA,0.0384
ATCCTGAA,0.127
ATTCTTCC,0.112
ATAAGACG,0.215
CAGTCGCC,-0.238
AGCTCGAG,-0.24
AATGGAGG,-0.0838

# Series 4
# Target: Prothrombin, mature alpha-thrombin (F2, Homo sapiens, UniProt P00734)
# Method: aptamer microarray, sandwich
# Form: DNA with 2'F-ANA
# Matrix: in vitro
# Tested at: 200 nM
# Notes: whole 15-mer aptamer, many near background
# Together with: Cy3 exosite-II aptamer, 400 nM
# Direction: higher = stronger binding
# Oligonucleotide: GGTTGGTGTGGTTGG
Modification,mean fluorescence intensity
2'F-ANA at 2 4 5 6 7 10 12 14,45.4 a.u.
2'F-ANA at 1 2 3 4 5 7 14 15,43.6 a.u.
2'F-ANA at 4 5 7 9 10 11 12 15,49.2 a.u.
2'F-ANA at 1 3 5 6 7 10 11,46.7 a.u.
2'F-ANA at 1 4 7 8 11 12 13 14,59.2 a.u.
2'F-ANA at 1 2 3 4 5 7 8 10 13 14,89.4 a.u.
2'F-ANA at 2 3 7 9 12 13 15,828 a.u.
2'F-ANA at 1 3 5 7 8 9 11 12,158 a.u.
2'F-ANA at 3 4 8 10 11 12,318 a.u.
2'F-ANA at 1 3 4 6 7 11 12 15,282 a.u.
2'F-ANA at 2 3 4 9 10,394 a.u.
2'F-ANA at 1 2 3 4 6 8 14 15,64.7 a.u.
2'F-ANA at 2 9 11 13 14,126 a.u.
2'F-ANA at 6 7 8 9 10 11 13 14 15,103 a.u.

# Series 5
# Target: CCNA2, cyclin fold, Cln2 fusion (human)
# Method: yeast growth competition, sequencing
# Matrix: yeast
# Notes: strong parent motif
# Relative to: not given
# Direction: higher = stronger binding
# Starting sequence: MICAL3 docking peptide (human); LQLRRQLSFSEDS; partner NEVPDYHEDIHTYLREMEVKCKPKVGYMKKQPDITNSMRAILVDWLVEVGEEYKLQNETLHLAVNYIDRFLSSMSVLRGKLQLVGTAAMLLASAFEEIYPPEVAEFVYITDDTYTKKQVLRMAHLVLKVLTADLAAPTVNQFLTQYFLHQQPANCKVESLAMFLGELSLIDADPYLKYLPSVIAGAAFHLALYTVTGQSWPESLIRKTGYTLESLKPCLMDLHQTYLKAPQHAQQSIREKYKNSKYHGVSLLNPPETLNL
Substitution,normalised enrichment score
LQLRRQYSFSEDS [L7Y],0.207
LQLQRQLSFSEDS [R4Q],0.322
LQLRRQVSFSEDS [L7V],0.369
LQLRRQLRFSEDS [S8R],3.04
LQLRRQLSYSEDS [F9Y],2.33
LQLRRQLNFSEDS [S8N],4.35
LQLRRQLPFSEDS [S8P],0.666
LQLRRQLSFYEDS [S10Y],2.64
LQERRQLSFSEDS [L3E],0.138
LQLRGQLSFSEDS [R5G],0.22
LQLRRKLSFSEDS [Q6K],4.73
LQLRRQLSFSETS [D12T],3.55
LQLRRQLSFSEHS [D12H],3.53
LQLRRQLSFSGDS [E11G],3.47
LLLRRQLSFSEDS [Q2L],3.44
LQLRRQLSFHEDS [S10H],2.69
LQLRRQLSSSEDS [F9S],-0.541

# Series 6
# Target: Fragile X messenger ribonucleoprotein 1, C-terminal low-complexity region (Fmr1, Mus musculus, UniProt P35922)
# Method: RNA Bind-n-Seq
# Form: RNA
# Matrix: in vitro
# Tested at: 200 nM
# Notes: whole 134-nt RNA, ends assumed
# Together with: 150 mM LiCl
# Relative to: input library
# Direction: higher = stronger binding
# All molecules: 7-deaza-guanosine replaces G
Oligonucleotide,log2 enrichment
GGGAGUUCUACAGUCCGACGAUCUGCUUGUGUUUCUGACAGAUUCACUGCCUUCUGAGGACUUGGAUCCUGCCGAUCCCCCGAUCUCGGUAACUGUUGGCCUGAUCUGGCUGUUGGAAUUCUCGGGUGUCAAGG,0.602
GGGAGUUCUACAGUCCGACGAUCAGUCCUGUGCUACACAUCGUAUGUACCGAAUCGGGAAAAGGGAAAAGGGGAAAAGGGAAAGUAUUAUGUUACGCCGUUCGGAUCUGCACUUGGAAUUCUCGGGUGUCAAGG,-0.764
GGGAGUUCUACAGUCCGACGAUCCACAGACAACACGCACCCACACAGACACAGAUGGAAGGGGUUGGGAUGGGGACAGGGUGCACAGCAGGGCGGGGUAGGACCCCAGCCCCUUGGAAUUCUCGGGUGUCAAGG,0.466
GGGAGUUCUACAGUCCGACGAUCAGUCCUGUGCUACACAUCGUAUGUACCGAAUCGGGUUUUUGGGAAAAAGGGAAAGGGAAAGUAUUAUGUUACGCCGUUCGGAUCUGCACUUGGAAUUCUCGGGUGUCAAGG,-1.94
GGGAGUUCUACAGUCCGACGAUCUGGGAGGUGGAUUUUGUUUAUUUUUUUAGCCCAUUUCCAGGGGUGGGAAUUUUUUUUUAAUAUGUGUCAUGAAUAAAGUUGUUUUUGAAAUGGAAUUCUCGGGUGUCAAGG,-0.127
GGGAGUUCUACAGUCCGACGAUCUGGGAGGUGGAUUUUGUUUAUUUUUUUAGCUCAUUUCCAGGGGUGGGAAUUUUUUUUUAAUAUGUGUCAUGAAUUAAGUUGUUUUUGAAAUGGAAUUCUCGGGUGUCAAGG,0.324

# Series 7
# Target: Histone acetyltransferase KAT6A, both winged helices, GST fusion (KAT6A, Homo sapiens, UniProt Q92794, residues 1-181)
# Method: protein binding microarray
# Form: double-stranded DNA, one strand shown
# Matrix: in vitro
# Tested at: not given
# Notes: 8-mer, flanks averaged, mean of 2 arrays, mostly near background
# Relative to: not given
# Direction: higher = stronger binding
# Construct (chain): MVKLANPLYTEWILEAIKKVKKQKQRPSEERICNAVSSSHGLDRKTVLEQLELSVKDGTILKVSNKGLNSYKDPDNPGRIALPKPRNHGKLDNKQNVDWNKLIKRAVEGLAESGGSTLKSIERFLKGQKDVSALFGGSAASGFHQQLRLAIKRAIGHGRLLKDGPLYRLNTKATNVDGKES
Oligonucleotide,E-score
CGGATAAC,0.13
CTTGAACA,0.0597
ACAGCCGT,0.237
CAGATCCC,-0.0677
CGCGCAGA,0.338
CTCCTGGC,0.0337
GGAGCATA,-0.0466
AGGCCAAG,-0.249
AAACGAAC,0.0475
GCTTACCA,0.0182
GCTGCTCA,-0.0941
AGCGCGCG,0.401
GATGGAGA,-0.102
GAACTTCC,-0.018
AGCGAGCC,0.0398
GTCCTCTA,-0.0408
